Experimental data of several laboratories.
Compare with care: the assays were run in different laboratories. Numbers after ± are the reported error.

O=C(N=P12CN3CN(CN(C3)C1)C2)c1cccc[c]1[Pd]([Br])([PH]12CN3CN(CN(C3)C1)C2)[PH]12CN3CN(CN(C3)C1)C2  solubility (water): 800 µM
CC(C)(CN)CNC(=O)O[C@H]1CCCC2(C1)OOC1(O2)C2CC3CC(C2)CC1C3 (some centres unmarked)  solubility (PBS; pH 7.4): 164 µM
COc1ccc2c3c([nH]c2c1)CCN(C)CC3  solubility (0.9% saline; fumarate salt): ≥ 40000 µg/mL
CC(C)C[C@@H]1NC(=O)[C@H](C(C)C)N(C)C(=O)[C@@H](CC(C)C)NC(=O)[C@@H](Cc2ccccc2)NC(=O)[C@@H]([C@H](OCc2ccccc2)c2ccccc2)NC1=O  solubility: 7 µM
CC(=O)CCC1C(=O)NC(C(C)C)C(=O)NC(Cc2cc(O)cc(F)c2)C(=O)N2CCCC(N2)C(=O)OC(C(C)=CC=CC(=O)N2CCCCO2)CC=CC=CC(O)C(C)C1O (centres unmarked)  solubility (PBS with 1% DMSO; 4 h, pH 7.4, room temperature): 140 µM
CCCCCc1cc(OC(=O)C(NC(=O)CCC(=O)O)C(C)C)c2c(c1)OC(C)(C)C1CCC(C)=CC21 (centres unmarked)  solubility (shake-flask; aqueous buffer; 24 h, pH 3, 25 °C): < 1 µg/mL
Cc1cnc(N)c(S(=O)(=O)N(C)CC(=O)Nc2ccc(N3CCN(C)CC3)c(Cl)c2)c1  solubility (aqueous buffer; pH 6.8): > 120 µg/mL
O=c1c2ccccc2[se]n1CCCn1[se]c2ccccc2c1=O  solubility (5% Soluplus in water; 24 h, 25 °C, 50 mg/mL): 165 ± 6 µg/mL
CC(C)C[C@H](NC(=O)[C@H](CCCCN)NC(=O)[C@H](CCC(N)=O)NC(=O)[C@@H](N)Cc1c[nH]cn1)C(=O)N[C@H](C(=O)N[C@@H](CSSC[C@H](NC(=O)[C@@H](NC(=O)[C@H](CC(C)C)NC(=O)[C@H](CCCCN)NC(=O)[C@H](CCC(N)=O)NC(=O)[C@@H](N)Cc1c[nH]cn1)C(C)C)C(=O)N[C@@H](Cc1ccccc1)C(=O)N[C@@H](C)C(=O)N[C@@H](CCC(=O)O)C(=O)N[C@@H](CC(=O)O)C(=O)N[C@H](C(=O)O)C(C)C)C(=O)N[C@@H](Cc1ccccc1)C(=O)N[C@@H](C)C(=O)N[C@@H](CCC(=O)O)C(=O)N[C@@H](CC(=O)O)C(=O)N[C@H](C(=O)O)C(C)C)C(C)C  solubility (turbidity; 20 mM Tris-HCl buffer; pH 7.4): ≥ 500 µM
CSCC[C@H](NC(=O)[C@H](CCC(=O)O)NC(=O)[C@H](Cc1ccc(O)cc1)NC(=O)[C@@H](NC(=O)[C@H](CC(C)C)NC(=O)[C@H](CC(=O)O)NC(=O)[C@H](CC(C)C)NC(C)=O)[C@@H](C)O)C(=O)N[C@@H](CC(C)C)C(=O)N[C@@H](CO)C(=O)N[C@@H](CC(C)C)C(=O)N[C@@H](CCC(N)=O)C(=O)N[C@@H](CCC(N)=O)C(=O)N[C@H](C(=O)N[C@H](C(=O)N[C@@H](CCCCN)C(=O)N[C@@]1(C)CCCC=CCCC[C@@](C)(C(=O)N[C@@H](Cc2ccc(O)cc2)C(N)=O)NC(=O)[C@H](CCC(=O)O)NC(=O)[C@H](CC(N)=O)NC(=O)[C@H](CC(C)C)NC1=O)C(C)C)C(C)C  solubility (concentration not given, 24 (unit not given), pH 7.4): 10500 µg/mL
Cc1cnc(N)c(S(=O)(=O)N(C)CC(=O)Nc2ccc(N3CCOCC3)c(Cl)c2)c1  solubility (aqueous buffer; pH 6.8): 20 µg/mL
CCCCCCCCCCCCCCCC(=O)Nc1nc2ccccc2c2c1ncn2CC(C)C  solubility: 2900 µg/mL
COc1ccc(NC(=O)CN(C)S(=O)(=O)c2cc(C)cnc2N)cc1Cl  solubility (aqueous buffer; pH 6.8): 4.6 µg/mL
CC(NC(=O)NNS(=O)(=O)c1ccc(OC(F)F)cc1)(C(F)(F)F)C(F)(F)F  solubility (aqueous buffer): 18 µM
Cc1cnc(N)c(S(=O)(=O)N(C)CC(=O)Nc2ccc(C#N)c(Cl)c2)c1  solubility (aqueous buffer; pH 6.8): 0.15 µg/mL
O=C(CN1CCN(c2cc3c(cc2F)c(=O)c(C(=O)O)cn3C2CC2)CC1)Nc1ccc(Cl)cc1  solubility (DMSO): 28100 µg/mL
COc1ccc(NC(=O)CN(C)S(=O)(=O)c2cc(C)cnc2N)cn1  solubility (aqueous buffer; pH 6.8): > 97 µg/mL
CCN(CC)CCOc1ccc(-c2nnn(Cc3ccc(OC)cc3)c2N)cc1  solubility (extracellular solution, 0.3% DMSO; pH 6.9, soluble up to): ≤ 100 µM
O=C(NCc1ccco1)C1CCN(S(=O)(=O)c2ccc(Cl)cc2)CC1  solubility (pH 6.5): 80 µM
CC(=O)N[C@H]1CSCc2nc(CN=[N+]=[N-])nc(n2)CSC[C@@H](C(N)=O)NC(=O)[C@H](CC(N)=O)NC(=O)[C@H](CC(N)=O)NC(=O)[C@H](CC(C)C)NC(=O)[C@H](CC(C)C)NC(=O)[C@H](Cc2ccccc2)NC(=O)[C@H](C(C)C)NC(=O)[C@H](CC(=O)O)NC(=O)[C@H]([C@@H](C)O)NC(=O)[C@H](CCC(=O)O)NC(=O)[C@H](CC(N)=O)NC(=O)[C@H](CCC(=O)O)NC(=O)CNC(=O)[C@H](Cc2c[nH]c3ccccc23)NC(=O)[C@H]([C@@H](C)O)NC1=O  solubility (acetonitrile/water 1:1 with 0.1% TFA; crude cyclic peptide): 9300 µg/mL
CC[C@H](C)[C@H](NC(=O)[C@H](Cc1ccccc1)NC(=O)[C@H](CCCCN)NC(=O)[C@@H]1CCCN1)C(=O)N[C@@H](Cc1c[nH]cn1)C(=O)N[C@@H](Cc1ccc(O)cc1)C(=O)N[C@@H](CC(=O)O)C(=O)N[C@H](C(N)=O)[C@@H](C)O  solubility: < 40000 µg/mL
O=P([O-])([O-])Oc1ccc(-c2cc(=S)ss2)cc1.[Na+].[Na+]  solubility (HPLC; 0.9% NaCl; 1 h, pH 7.4, 25 °C): 1500 ± 149 µg/mL
CSCC[C@H](NC(=O)[C@H](CCCCN)NC(=O)[C@H](CCCNC(=N)N)NC(=O)[C@H](Cc1ccccc1)NC(=O)CNC(=O)[C@H](CO)NC(=O)[C@H](CCC(N)=O)NC(=O)[C@H](CC(C)C)NC(=O)[C@@H](NC(=O)[C@H](C)NC(=O)[C@H](CO)NC(=O)[C@@H](NC(=O)[C@H](CCCCN)NC(=O)c1ccc(N=Nc2ccc(N(C)C)cc2)cc1)[C@@H](C)O)C(C)C)C(=O)N[C@@H](CCC(=O)O)C(=O)NCCNc1cccc2c(S(=O)(=O)O)cccc12  solubility (shake-flask HPLC; 1 h, pH 7.2, 37 °C, 5% DMSO, 0.01% Triton X-100): 47.4 ± 1.3 µM
O=c1c2ccccc2[se]n1CCCCn1[se]c2ccccc2c1=O  solubility (10% Soluplus in water; 24 h, 25 °C, 100 mg/mL): 246 ± 9 µg/mL
Cc1cc(S(=O)(=O)N(C)CC(=O)Nc2ccn(C)c(=O)c2)c2[nH]ncc2c1  solubility (aqueous buffer; pH 6.8): > 110 µg/mL
O=c1cc(-c2ccccc2)oc2c(Br)c(O)c(O)c(O)c12  solubility (DMSO, PEG, ethanol, water vehicle; 10% DMSO, 35% PEG 400, 2% ethanol, 63% water): 6250 µg/mL

Excerpt of the above:
O=P([O-])([O-])Oc1ccc(-c2cc(=S)ss2)cc1.[Na+].[Na+]  solubility (HPLC; 0.9% NaCl; 1 h, pH 7.4, 25 °C): 1500 ± 149 µg/mL
CSCC[C@H](NC(=O)[C@H](CCCCN)NC(=O)[C@H](CCCNC(=N)N)NC(=O)[C@H](Cc1ccccc1)NC(=O)CNC(=O)[C@H](CO)NC(=O)[C@H](CCC(N)=O)NC(=O)[C@H](CC(C)C)NC(=O)[C@@H](NC(=O)[C@H](C)NC(=O)[C@H](CO)NC(=O)[C@@H](NC(=O)[C@H](CCCCN)NC(=O)c1ccc(N=Nc2ccc(N(C)C)cc2)cc1)[C@@H](C)O)C(C)C)C(=O)N[C@@H](CCC(=O)O)C(=O)NCCNc1cccc2c(S(=O)(=O)O)cccc12  solubility (shake-flask HPLC; 1 h, pH 7.2, 37 °C, 5% DMSO, 0.01% Triton X-100): 47.4 ± 1.3 µM
